Assay results collected from several papers.
Compare with care: the assays were run in different laboratories.

`NAPRITFGGPSDSTG` has a responding donors of 6% (human CD4 T cells; AIM; peptide).
`Nc1ncnc2c([C@@H]3N[C@H](CO)[C@@H](O)[C@H]3O)c[nH]c12` gave an infected cells of 0.9% (Marburg virus; viral replication, antibody staining; HeLa, Musoke; 50 µM, 12 h).
For `CC[C@H](C)[C@H](NC(=O)[C@H](CC(C)C)NC(=O)[C@H](Cc1c[nH]c2ccccc12)NC(=O)[C@H](CCC(N)=O)NC(=O)[C@@H](NC(=O)[C@H](Cc1ccccc1)NC(=O)[C@H](C)NC(=O)[C@H](CCCCNC(=O)COCCOCCNC(=O)COCCOCCNC(=O)CC[C@H](NC(=O)CCCCCCCCCCCCCCCCCCC(=O)O)C(=O)O)NC(=O)[C@H](CCC(N)=O)NC(=O)[C@H](C)NC(=O)[C@@H](NC(=O)[C@H](CCCCN)NC(=O)[C@H](CC(=O)O)NC(=O)[C@H](CC(C)C)NC(=O)C(C)(C)NC(=O)[C@@H](NC(=O)[C@H](CO)NC(=O)[C@H](Cc1ccc(O)cc1)NC(=O)[C@H](CC(=O)O)NC(=O)[C@H](CO)NC(=O)[C@@H](NC(=O)[C@H](Cc1ccccc1)NC(=O)[C@@H](NC(=O)CNC(=O)[C@H](CCC(=O)O)NC(=O)C(C)(C)NC(=O)[C@@H](N)Cc1ccc(O)cc1)[C@@H](C)O)[C@@H](C)O)[C@@H](C)CC)[C@@H](C)CC)C(C)C)C(=O)N[C@@H](C)C(=O)NCC(=O)NCC(=O)N1CCC[C@H]1C(=O)N[C@@H](CO)C(=O)N[C@@H](CO)C(=O)NCC(=O)N[C@@H](C)C(=O)N1CCC[C@H]1C(=O)N1CCC[C@H]1C(=O)N1CCC[C@H]1C(=O)N[C@@H](CO)C(N)=O`, “adverse events (catheter site pruritus)” read 0% (healthy subjects, single ascending dose; 2.5 mg).
`CNC(=O)[C@H](Cc1c[nH]c2ccccc12)NC(=O)[C@@H](CC(=O)NO)CC(C)C` has an inhibition of -0.00861% (Replicase polyprotein 1ab, main protease (rep, Severe acute respiratory syndrome coronavirus 2, UniProt P0DTD1); reporter gene (Gaussia luciferase), inhibitor; 20 µM).
Under “anaemia TEAE, Mild severity”, `Cn1cnc(Cn2c(=O)[nH]/c(=N\c3cc4cn(C)nc4cc3Cl)n(Cc3cc(F)c(F)cc3F)c2=O)n1` is recorded as 12.5% (human, mild renal impairment; oral, 375 mg).
`QRNFYEPQIITTDNT` gave a responding donors of 7% (human CD4 T cells; AIM; peptide).

Repeated from above:
`Nc1ncnc2c([C@@H]3N[C@H](CO)[C@@H](O)[C@H]3O)c[nH]c12` gave an infected cells of 0.9% (Marburg virus; viral replication, antibody staining; HeLa, Musoke; 50 µM, 12 h).
